Measurements gathered from unrelated publications.
Each line is one published result; not all experiments were run side by side. Numbers after ± are the reported error.
APP Aβ42 aggregates: Amyloid-beta precursor protein, Aβ42 aggregates (APP, Homo sapiens, UniProt P05067)
Chain of UniProt P05067 (whole entry, looked up): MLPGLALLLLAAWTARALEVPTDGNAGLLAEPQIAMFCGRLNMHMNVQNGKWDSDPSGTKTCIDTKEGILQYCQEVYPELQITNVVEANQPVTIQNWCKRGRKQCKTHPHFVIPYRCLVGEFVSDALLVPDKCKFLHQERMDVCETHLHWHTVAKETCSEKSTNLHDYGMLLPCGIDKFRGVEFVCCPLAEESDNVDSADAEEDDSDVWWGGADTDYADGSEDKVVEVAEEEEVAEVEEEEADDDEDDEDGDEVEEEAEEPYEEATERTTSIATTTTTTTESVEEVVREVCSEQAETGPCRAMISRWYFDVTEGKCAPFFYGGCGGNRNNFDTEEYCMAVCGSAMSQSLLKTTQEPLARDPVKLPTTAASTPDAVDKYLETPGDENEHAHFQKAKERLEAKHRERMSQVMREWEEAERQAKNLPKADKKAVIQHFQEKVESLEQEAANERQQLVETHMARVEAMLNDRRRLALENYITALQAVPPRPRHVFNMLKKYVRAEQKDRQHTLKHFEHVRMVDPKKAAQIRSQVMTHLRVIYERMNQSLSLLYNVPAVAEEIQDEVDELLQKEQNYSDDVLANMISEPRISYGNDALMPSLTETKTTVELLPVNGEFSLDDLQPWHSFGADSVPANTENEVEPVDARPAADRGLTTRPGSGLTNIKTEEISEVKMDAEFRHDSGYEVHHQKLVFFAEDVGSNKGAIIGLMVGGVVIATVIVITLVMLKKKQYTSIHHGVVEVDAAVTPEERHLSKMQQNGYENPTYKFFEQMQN
APP: Amyloid-beta precursor protein (APP, Homo sapiens, UniProt P05067)

COCCOCCOCCOCCOC(=O)/C(C#N)=C/c1ccc2cc(N3CCCCC3)ccc2c1  emission maximum (APP Aβ42 aggregates; fluorescence; free probe, 5% DMSO in water): 590 nm
CC(=O)N[C@@H](CC(C)C)C(=O)Nc1ccccc1C(=O)N[C@@H](Cc1ccccc1)C(=O)N[C@@H](Cc1ccccc1)C(=O)N[C@@H](CCCCN)C(N)=O  amyloid fibril disruption (Amyloid-beta precursor protein, Aβ40 fibrils (APP, Homo sapiens, UniProt P05067); ThT fluorescence; 2-fold molar excess, pH 7.4, 37 °C, with: preformed Aβ1-40 fibrils 40 µM): 34%
COCCOCCOCCOC(=O)/C(C#N)=C/c1ccc2cc(N3CCOCC3)ccc2c1  excitation maximum (APP Aβ42 aggregates; fluorescence; with: aggregated Abeta42 5 µM): 380 nm
CC[C@H](C)[C@H](NC(=O)[C@@H](NC(=O)C(C)(C)N)C(C)C)C(=O)N[C@@H](C)C(N)=O  inhibition (APP; amyloid aggregation, inhibitor, fluorescence; 4 µM, 24 h): 66%
COCCOCCOCCOC(=O)/C(C#N)=C/c1ccc2cc(NCCN3CCOCC3)ccc2c1  emission intensity increase (APP Aβ42 aggregates; fluorescence; with: aggregated Abeta42 5 µM; reference: free compound): 2.9 fold
COc1cc(OC)c2c(O)c3c(=O)cc(C)oc3c(-c3c(OC)cc4cc5c(c(O)c4c3OC)C(=O)CC(C)(O)O5)c2c1 (stereo not drawn)  Aβ aggregation (APP; thioflavin-T fluorescence; 50 µM; reference: untreated): 41.9 ± 10.4%
CCCCN(CCCC)c1ccc(C=C(C#N)C(=O)OCCOCCOCCOC)cc1  fluorescence intensity (APP Aβ42 aggregates; binding, fluorescence spectroscopy; PBS; 4 µM, with: pre-aggregated Aβ(1-42) 5 µM; reference: probe without Aβ): 9.4 fold
NC(=O)CN(Cc1ccccc1)C(=O)CN(CCOc1cc(-c2ccccn2)nc(-c2ccccn2)c1)C(=O)CNCc1ccccn1  ascorbate consumption (Amyloid-beta precursor protein, Cu/Zn-bound amyloid-beta 1-40 (APP, Homo sapiens, UniProt P05067); ROS production, inhibitor; 20 µM, 30 min, pH 7.4, with: Aβ1-16 10 µM, Cu2+ 9 µM, Zn2+ 10 µM): 94.1%
CC[C@H](C)[C@H](NC(=O)[C@@H](NC(=O)[C@@H](N)C(C)C)C(C)C)C(=O)N[C@@H](C)C(=O)O  inhibition (APP; amyloid aggregation, inhibitor, fluorescence; 4 µM, 24 h): 60.6%
[11CH3]Nc1ccc(-c2nc3ccc(O)cc3o2)cn1  distribution volume ratio (APP; binding, PET, reference Logan; Alzheimer's disease patients, white matter; reference: cerebellum): 1.03 ± 0.06
CN(C)c1ccc(C=C(C#N)C(=O)OCC(O)CO)cc1 (stereo not drawn)  emission maximum (APP Aβ42 aggregates; binding, fluorescence spectroscopy; PBS; 4 µM, with: pre-aggregated Aβ(1-42) 5 µM): 467 nm
CC(C)C[C@@H]1NC(=O)CN(C)C(=O)CCC(=O)NCCCC[C@@H](C(=O)N[C@@H](CCCNC(=N)N)C(N)=O)NC(=O)[C@H](Cc2ccccc2)NC(=O)[C@H](Cc2ccccc2)NC(=O)c2ccccc2NC1=O  inhibition (Amyloid-beta precursor protein, monomer (APP, Homo sapiens, UniProt P05067); amyloid aggregation, inhibitor, fluorescence; 40 µM, pH 7.4): 72%

A few entries again:
COCCOCCOCCOC(=O)/C(C#N)=C/c1ccc2cc(N3CCOCC3)ccc2c1  excitation maximum (APP Aβ42 aggregates; fluorescence; with: aggregated Abeta42 5 µM): 380 nm
